# Results of several laboratories.
# Every numbered part comes from another study and shows a few of its results, in no order.
# Chain of UniProt Q96RR4 (whole entry, looked up): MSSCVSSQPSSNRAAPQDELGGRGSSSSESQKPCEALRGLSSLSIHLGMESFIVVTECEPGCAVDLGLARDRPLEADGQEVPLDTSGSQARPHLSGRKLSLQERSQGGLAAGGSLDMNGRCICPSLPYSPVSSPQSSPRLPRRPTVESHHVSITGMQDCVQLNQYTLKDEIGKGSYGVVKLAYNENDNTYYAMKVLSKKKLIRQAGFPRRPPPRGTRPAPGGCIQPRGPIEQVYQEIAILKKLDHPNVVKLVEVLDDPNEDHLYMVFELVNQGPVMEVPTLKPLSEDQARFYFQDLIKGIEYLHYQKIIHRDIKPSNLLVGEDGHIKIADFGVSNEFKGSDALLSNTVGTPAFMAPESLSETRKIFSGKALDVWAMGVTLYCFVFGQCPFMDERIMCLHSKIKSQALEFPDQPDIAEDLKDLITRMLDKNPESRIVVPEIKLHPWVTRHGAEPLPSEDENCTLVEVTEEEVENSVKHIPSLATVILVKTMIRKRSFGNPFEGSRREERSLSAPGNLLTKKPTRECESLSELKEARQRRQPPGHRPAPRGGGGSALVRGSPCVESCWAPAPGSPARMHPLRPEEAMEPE
# Chain of UniProt Q8TD19 (whole entry, looked up): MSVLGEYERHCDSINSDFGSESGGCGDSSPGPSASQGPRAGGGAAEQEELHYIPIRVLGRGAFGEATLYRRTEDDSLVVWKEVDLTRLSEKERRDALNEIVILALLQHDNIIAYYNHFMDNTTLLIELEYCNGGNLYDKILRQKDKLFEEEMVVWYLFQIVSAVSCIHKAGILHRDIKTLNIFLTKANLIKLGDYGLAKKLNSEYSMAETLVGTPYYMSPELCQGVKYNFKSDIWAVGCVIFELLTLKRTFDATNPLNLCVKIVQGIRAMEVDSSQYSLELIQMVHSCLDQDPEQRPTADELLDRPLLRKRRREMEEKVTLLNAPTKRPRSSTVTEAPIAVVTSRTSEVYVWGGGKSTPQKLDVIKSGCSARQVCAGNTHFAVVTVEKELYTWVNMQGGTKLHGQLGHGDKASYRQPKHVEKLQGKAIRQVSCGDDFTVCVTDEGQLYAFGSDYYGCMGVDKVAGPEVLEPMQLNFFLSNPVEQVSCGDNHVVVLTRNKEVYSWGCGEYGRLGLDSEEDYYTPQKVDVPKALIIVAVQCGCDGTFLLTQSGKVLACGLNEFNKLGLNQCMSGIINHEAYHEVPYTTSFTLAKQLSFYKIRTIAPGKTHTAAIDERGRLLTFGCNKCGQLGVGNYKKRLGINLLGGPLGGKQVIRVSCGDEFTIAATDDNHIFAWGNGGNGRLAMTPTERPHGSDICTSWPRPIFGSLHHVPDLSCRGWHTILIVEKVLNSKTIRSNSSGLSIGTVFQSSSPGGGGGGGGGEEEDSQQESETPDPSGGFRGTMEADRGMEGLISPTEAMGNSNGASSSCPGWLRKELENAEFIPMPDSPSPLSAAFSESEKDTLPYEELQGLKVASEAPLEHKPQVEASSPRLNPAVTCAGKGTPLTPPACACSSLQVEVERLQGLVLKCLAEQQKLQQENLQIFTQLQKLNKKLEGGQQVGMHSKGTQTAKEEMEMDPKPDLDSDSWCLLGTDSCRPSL
# Chain of UniProt P31152 (whole entry, looked up): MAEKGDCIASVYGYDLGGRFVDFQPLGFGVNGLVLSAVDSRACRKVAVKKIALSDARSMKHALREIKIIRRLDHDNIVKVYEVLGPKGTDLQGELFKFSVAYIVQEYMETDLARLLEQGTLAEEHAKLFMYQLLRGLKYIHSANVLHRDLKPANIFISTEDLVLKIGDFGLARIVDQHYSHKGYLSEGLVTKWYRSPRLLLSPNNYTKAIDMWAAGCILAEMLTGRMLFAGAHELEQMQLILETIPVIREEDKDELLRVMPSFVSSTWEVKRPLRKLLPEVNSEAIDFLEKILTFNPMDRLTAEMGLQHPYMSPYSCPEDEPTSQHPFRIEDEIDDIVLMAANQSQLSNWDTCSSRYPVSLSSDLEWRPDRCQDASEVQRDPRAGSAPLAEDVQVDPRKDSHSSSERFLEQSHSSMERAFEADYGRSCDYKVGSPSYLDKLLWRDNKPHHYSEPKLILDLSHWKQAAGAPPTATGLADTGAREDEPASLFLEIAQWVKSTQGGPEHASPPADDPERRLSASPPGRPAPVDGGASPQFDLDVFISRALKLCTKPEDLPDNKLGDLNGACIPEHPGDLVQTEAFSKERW
# Chain of UniProt P11802 (whole entry, looked up): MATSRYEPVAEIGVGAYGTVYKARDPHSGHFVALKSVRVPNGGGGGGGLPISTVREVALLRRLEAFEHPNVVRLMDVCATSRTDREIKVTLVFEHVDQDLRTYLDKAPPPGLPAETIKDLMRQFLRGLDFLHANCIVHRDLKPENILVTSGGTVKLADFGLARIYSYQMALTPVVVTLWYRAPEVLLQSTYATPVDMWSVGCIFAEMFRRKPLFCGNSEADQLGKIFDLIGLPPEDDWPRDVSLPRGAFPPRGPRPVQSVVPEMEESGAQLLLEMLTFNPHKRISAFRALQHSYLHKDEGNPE
# Chain of UniProt Q6PHR2 (whole entry, looked up): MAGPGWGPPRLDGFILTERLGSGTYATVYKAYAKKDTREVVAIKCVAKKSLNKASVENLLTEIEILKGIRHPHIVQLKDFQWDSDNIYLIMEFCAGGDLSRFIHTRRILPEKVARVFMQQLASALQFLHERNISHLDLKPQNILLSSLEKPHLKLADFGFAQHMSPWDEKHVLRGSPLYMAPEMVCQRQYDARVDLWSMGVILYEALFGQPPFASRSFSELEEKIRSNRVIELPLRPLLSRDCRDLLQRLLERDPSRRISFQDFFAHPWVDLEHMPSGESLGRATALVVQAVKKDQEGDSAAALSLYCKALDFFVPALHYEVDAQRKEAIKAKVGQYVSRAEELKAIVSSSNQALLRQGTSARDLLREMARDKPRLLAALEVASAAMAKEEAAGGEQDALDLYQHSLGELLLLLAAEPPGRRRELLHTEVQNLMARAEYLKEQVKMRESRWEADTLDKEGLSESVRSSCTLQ
# Chain of UniProt Q14012 (whole entry, looked up): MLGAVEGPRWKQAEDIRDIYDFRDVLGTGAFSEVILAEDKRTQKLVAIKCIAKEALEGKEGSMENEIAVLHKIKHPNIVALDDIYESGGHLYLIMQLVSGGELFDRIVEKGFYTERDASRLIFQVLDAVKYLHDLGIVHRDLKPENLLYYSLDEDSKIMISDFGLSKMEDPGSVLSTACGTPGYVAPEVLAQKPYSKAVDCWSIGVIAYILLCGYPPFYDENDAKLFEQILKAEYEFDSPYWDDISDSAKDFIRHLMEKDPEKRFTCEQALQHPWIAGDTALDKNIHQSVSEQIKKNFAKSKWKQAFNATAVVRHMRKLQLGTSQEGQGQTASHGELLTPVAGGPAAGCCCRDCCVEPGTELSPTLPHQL
# Chain of UniProt O94804 (whole entry, looked up): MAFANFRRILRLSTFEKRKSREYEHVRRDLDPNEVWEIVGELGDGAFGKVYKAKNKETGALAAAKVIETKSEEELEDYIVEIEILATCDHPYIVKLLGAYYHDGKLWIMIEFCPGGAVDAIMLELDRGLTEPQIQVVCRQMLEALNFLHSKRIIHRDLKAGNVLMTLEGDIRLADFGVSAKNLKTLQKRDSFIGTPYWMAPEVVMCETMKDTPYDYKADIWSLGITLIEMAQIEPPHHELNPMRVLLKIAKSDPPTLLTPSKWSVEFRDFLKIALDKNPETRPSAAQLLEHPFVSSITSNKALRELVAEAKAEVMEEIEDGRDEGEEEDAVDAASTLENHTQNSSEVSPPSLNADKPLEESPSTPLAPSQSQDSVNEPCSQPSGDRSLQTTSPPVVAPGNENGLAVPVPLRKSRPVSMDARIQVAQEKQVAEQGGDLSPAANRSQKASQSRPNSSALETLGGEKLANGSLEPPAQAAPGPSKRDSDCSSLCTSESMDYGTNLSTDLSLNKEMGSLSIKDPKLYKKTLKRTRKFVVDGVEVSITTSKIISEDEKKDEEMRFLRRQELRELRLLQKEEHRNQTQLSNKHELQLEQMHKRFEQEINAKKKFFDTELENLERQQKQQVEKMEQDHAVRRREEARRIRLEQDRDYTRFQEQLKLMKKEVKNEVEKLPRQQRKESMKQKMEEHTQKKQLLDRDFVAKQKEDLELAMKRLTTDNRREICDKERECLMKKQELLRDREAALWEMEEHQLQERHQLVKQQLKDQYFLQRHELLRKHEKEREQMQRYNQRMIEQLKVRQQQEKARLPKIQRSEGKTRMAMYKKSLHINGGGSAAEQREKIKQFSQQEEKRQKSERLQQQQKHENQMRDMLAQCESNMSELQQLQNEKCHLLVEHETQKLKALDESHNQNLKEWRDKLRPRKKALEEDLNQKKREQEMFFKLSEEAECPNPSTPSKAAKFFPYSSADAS
# Chain of UniProt Q15831 (whole entry, looked up): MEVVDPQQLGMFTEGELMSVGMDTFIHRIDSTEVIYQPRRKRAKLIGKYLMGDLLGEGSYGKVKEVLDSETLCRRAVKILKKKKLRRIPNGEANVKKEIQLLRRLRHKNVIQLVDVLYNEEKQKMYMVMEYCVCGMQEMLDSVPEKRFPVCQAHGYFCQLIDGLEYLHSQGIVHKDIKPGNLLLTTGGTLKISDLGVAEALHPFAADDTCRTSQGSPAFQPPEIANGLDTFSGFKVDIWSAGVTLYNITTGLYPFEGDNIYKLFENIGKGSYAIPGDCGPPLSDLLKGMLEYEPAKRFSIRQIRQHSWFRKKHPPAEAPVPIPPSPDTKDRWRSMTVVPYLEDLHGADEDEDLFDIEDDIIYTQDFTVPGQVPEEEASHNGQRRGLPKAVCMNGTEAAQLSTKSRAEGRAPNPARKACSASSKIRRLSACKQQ
# Chain of UniProt Q00535 (whole entry, looked up): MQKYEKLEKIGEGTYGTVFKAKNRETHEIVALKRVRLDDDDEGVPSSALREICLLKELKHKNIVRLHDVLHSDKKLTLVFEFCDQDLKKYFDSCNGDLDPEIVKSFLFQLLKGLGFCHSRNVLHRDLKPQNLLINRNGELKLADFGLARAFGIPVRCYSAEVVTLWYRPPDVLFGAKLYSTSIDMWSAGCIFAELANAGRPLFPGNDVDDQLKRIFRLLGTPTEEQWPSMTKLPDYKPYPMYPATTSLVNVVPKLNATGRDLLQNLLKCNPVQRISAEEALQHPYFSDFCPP

# Block 1
# Cell line: mouse MPNST tumor cells
# Method: high-content nuclear imaging
# Refers to: cell number
# Tested at: 10 µM
# Time: 12 h
# Setting: mean of 2 replicates
# Baseline: plate mean
# Reading: higher = more cells
Structure (SMILES),nuclei count
O=C(Nc1cc(-c2ccccc2)nn1-c1ccccc1)c1ccc([N+](=O)[O-])cc1,4.3 z-score
CCn1cc(C(=O)O)c(=O)c2cc(F)c(N3CCNC(C)C3)c(F)c21 (centres unmarked),0.0962 z-score
COc1ccc2nc3ccc(Cl)cc3c(SCCCN)c2c1,-1.24 z-score
CCCCC(O)c1ccccc1 (centres unmarked),-0.333 z-score
Oc1cc2c(cc1O)CN(C(=S)NCCc1ccc(Cl)cc1)CCC2,-0.151 z-score

# Block 2
# Compound: Cc1cc(C)c(-n2ccn3nc(-c4cccnc4)cc23)cc1NC(=O)c1cc(C#N)cc(S(F)(F)(F)(F)F)c1
# Tested at: 0.1 µM
target,observed,action,method,baseline,remaining binding [%]
"Ribosomal protein S6 kinase alpha-3, C-terminal kinase domain (RPS6KA3, Homo sapiens, UniProt P51812)",cell-free assay,,competition with immobilised ligand,,65.1
"Serine/threonine-protein kinase tousled-like 2 (TLK2, Homo sapiens, UniProt Q86UE8)",cell-free assay,,competition with immobilised ligand,,100
"Atypical kinase COQ8A, mitochondrial (COQ8A, Homo sapiens, UniProt Q8NI60)",cell-free assay,,competition with immobilised ligand,,94.5
"Epidermal growth factor receptor (EGFR, Homo sapiens, UniProt P00533, T790M)",cell-free assay,,competition with immobilised ligand,,61.6
"Serine/threonine-protein kinase TBK1 (TBK1, Homo sapiens, UniProt Q9UHD2)",cell-free assay,,competition with immobilised ligand,,62.8
"Serine/threonine-protein kinase Nek9 (NEK9, Homo sapiens, UniProt Q8TD19)",cell-free assay,,competition with immobilised ligand,,72.2
"Serine/threonine-protein kinase ULK3 (ULK3, Homo sapiens, UniProt Q6PHR2)",cell-free assay,,competition with immobilised ligand,,100
"Calcium/calmodulin-dependent protein kinase type 1 (CAMK1, Homo sapiens, UniProt Q14012)",cell-free assay,,competition with immobilised ligand,,60.4
"Serine/threonine-protein kinase 32C (STK32C, Homo sapiens, UniProt Q86UX6)",cell-free assay,,competition with immobilised ligand,,83.4
"Tyrosine-protein kinase ABL1, phosphorylated (ABL1, Homo sapiens, UniProt P00519, Y253F)",cell-free assay,,competition with immobilised ligand,,68.6
"Cyclin-dependent kinase-like 5 (CDKL5, Homo sapiens, UniProt O76039)",binding,,competition with immobilised ligand,,100
"Serine/threonine-protein kinase RIO1 (RIOK1, Homo sapiens, UniProt Q9BRS2)",cell-free assay,,competition with immobilised ligand,,100
"Serine/threonine-protein kinase MARK2 (MARK2, Homo sapiens, UniProt Q7KZI7)",cell-free assay,,competition with immobilised ligand,,100
"Cyclin-dependent kinase 4, with cyclin D3 (CDK4, Homo sapiens, UniProt P11802)",cell-free assay,,competition with immobilised ligand,,86.2
"Serine/threonine-protein kinase/endoribonuclease IRE1 (ERN1, Homo sapiens, UniProt O75460)",cell-free assay,,competition with immobilised ligand,,68.3
"Hepatocyte growth factor receptor (MET, Homo sapiens, UniProt P08581, M1250T)",cell-free assay,,competition with immobilised ligand,,100
"Myosin light chain kinase 2, skeletal/cardiac muscle (MYLK2, Homo sapiens, UniProt Q9H1R3)",cell-free assay,,competition with immobilised ligand,,100
"Serine/threonine-protein kinase STK11 (STK11, Homo sapiens, UniProt Q15831)",cell-free assay,,competition with immobilised ligand,,75.9
"Discoidin domain-containing receptor 2 (DDR2, Homo sapiens, UniProt Q16832)",,binder,KINOMEscan competition binding,DMSO,1.8
"Mitogen-activated protein kinase 4 (MAPK4, Homo sapiens, UniProt P31152)",cell-free assay,,competition with immobilised ligand,,86.3

# Block 3
# SMILES: CN(C)CCCn1cc(C2=C(c3c[nH]c4ccccc34)C(=O)NC2=O)c2ccccc21
# Observed: enzyme activity
# Action: inhibitor
# Tested at: 0.5 µM
# Baseline: control
target,remaining activity [%]
"Inhibitor of nuclear factor kappa-B kinase subunit epsilon (IKBKE, Homo sapiens, UniProt Q14164)",89.4
"Mitogen-activated protein kinase 9 (MAPK9, Homo sapiens, UniProt P45984)",98.7
"Calcium/calmodulin-dependent protein kinase kinase 2 (CAMKK2, Homo sapiens, UniProt Q96RR4)",59.8
"Death-associated protein kinase 2 (DAPK2, Homo sapiens, UniProt Q9UIK4)",105
"Cyclin-dependent kinase 5, with p25 (CDK5, Homo sapiens, UniProt Q00535)",80.2
"Tyrosine-protein kinase Lyn, isoform B (LYN, Homo sapiens, UniProt P07948)",104
"STE20/SPS1-related proline-alanine-rich protein kinase (STK39, Homo sapiens, UniProt Q9UEW8)",91.9
"Protein kinase C beta type, isoform beta-I (PRKCB, Homo sapiens, UniProt P05771)",3.24
"Mitogen-activated protein kinase kinase kinase 3 (MAP3K3, Homo sapiens, UniProt Q99759)",97
"Serine/threonine-protein kinase Nek2 (NEK2, Homo sapiens, UniProt P51955)",96.2
"Serine/threonine-protein kinase 10 (STK10, Homo sapiens, UniProt O94804)",19.4
"TGF-beta receptor type-2 (TGFBR2, Homo sapiens, UniProt P37173)",90.4
"Inhibitor of nuclear factor kappa-B kinase subunit beta (IKBKB, Homo sapiens, UniProt O14920)",119

# Block 4
# Host: mouse
# Matrix: microsomes or S9
# Tested at: 2 µM
# Time: 0.5 h
Structure (SMILES),remaining compound [%]
CC(C)Nc1nc(NCCO)nc(N2CCC(N3CCOC(C)C3)CC2)n1 (centres unmarked),63.2
COc1ccc(C(=O)C2=CN(c3ccc(C#N)cc3)c3cc(F)ccc3S2(=O)=O)cc1,63.5
COc1ccc(Cc2nc3c4c(ncn3n2)OC(C)=C(C(C)=O)C4c2ccccc2)cc1OC (centres unmarked),5.98
COc1cc(OC)cc(C2CC(=O)c3cc(OC)cc(OC)c32)c1 (centres unmarked),53.6
CCCn1nc(C)c(-c2cncn2Cc2cccc(OC(C)C)c2)c1C,1.43
CS(=O)(=O)c1ccc(Oc2cc(F)cc(C(=O)O)c2)c2c1[C@H](O)C(F)(F)C2,79.5

# For quick reference, copied from above (block 2):
target,observed,action,method,baseline,remaining binding [%]
"Ribosomal protein S6 kinase alpha-3, C-terminal kinase domain (RPS6KA3, Homo sapiens, UniProt P51812)",cell-free assay,,competition with immobilised ligand,,65.1
"Serine/threonine-protein kinase TBK1 (TBK1, Homo sapiens, UniProt Q9UHD2)",cell-free assay,,competition with immobilised ligand,,62.8
"Serine/threonine-protein kinase/endoribonuclease IRE1 (ERN1, Homo sapiens, UniProt O75460)",cell-free assay,,competition with immobilised ligand,,68.3
"Serine/threonine-protein kinase STK11 (STK11, Homo sapiens, UniProt Q15831)",cell-free assay,,competition with immobilised ligand,,75.9
"Serine/threonine-protein kinase Nek9 (NEK9, Homo sapiens, UniProt Q8TD19)",cell-free assay,,competition with immobilised ligand,,72.2
"Cyclin-dependent kinase 4, with cyclin D3 (CDK4, Homo sapiens, UniProt P11802)",cell-free assay,,competition with immobilised ligand,,86.2
